Results from different studies.
Numbered parts are unrelated; each lists some results of a single study. “And” joins repeats or separate records; there may be more than shown.
Sequence of UniProt P46098 (whole entry, looked up): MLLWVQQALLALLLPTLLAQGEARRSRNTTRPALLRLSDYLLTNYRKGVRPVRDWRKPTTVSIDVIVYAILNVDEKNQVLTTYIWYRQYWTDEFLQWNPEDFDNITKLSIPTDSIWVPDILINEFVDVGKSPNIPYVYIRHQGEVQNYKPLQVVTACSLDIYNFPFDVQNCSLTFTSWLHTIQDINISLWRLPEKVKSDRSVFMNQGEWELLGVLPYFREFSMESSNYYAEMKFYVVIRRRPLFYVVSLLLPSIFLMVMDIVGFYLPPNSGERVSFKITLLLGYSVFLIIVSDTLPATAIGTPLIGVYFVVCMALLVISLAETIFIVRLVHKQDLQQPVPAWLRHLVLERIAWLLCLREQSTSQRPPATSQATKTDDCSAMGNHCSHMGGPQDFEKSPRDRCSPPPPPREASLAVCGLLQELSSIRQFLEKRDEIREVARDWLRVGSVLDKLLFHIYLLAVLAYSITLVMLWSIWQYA
Sequence of UniProt P21917 (whole entry, looked up): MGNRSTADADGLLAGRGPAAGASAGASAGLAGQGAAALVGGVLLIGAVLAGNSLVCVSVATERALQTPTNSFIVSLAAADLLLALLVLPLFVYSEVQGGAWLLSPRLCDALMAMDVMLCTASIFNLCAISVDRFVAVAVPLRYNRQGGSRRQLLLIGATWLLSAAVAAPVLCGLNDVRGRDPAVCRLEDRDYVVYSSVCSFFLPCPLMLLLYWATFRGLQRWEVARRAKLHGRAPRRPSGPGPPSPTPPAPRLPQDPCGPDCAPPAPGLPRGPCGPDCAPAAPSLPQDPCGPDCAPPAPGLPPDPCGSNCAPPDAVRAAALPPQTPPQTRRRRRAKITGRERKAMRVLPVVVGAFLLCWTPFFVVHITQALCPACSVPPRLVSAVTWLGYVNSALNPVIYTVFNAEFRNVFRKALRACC
Sequence of UniProt P35367 (whole entry, looked up): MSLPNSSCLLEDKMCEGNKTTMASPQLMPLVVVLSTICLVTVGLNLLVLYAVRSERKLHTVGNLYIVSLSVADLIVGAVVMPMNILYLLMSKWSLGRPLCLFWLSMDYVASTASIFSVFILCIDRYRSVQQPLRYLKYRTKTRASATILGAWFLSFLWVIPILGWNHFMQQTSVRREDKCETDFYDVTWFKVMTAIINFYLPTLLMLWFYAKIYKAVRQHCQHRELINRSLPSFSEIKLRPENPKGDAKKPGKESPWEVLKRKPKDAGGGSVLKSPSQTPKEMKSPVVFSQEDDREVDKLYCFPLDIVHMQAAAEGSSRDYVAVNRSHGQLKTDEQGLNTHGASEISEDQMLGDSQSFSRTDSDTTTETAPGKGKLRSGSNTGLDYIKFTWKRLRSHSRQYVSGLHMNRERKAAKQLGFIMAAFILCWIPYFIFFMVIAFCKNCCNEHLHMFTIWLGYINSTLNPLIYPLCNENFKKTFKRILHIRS
Sequence of UniProt P50406 (whole entry, looked up): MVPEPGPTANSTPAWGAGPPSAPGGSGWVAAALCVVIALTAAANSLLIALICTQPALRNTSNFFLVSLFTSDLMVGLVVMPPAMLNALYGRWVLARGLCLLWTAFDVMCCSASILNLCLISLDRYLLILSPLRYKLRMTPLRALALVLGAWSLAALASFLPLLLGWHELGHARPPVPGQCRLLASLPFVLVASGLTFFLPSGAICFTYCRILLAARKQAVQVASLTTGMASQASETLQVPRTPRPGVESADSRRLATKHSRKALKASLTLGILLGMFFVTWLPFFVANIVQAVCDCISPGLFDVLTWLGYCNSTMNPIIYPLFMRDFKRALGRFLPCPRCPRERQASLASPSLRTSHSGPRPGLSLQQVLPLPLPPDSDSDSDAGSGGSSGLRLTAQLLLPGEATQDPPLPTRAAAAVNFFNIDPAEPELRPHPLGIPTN
Sequence of UniProt Q9H3N8 (whole entry, looked up): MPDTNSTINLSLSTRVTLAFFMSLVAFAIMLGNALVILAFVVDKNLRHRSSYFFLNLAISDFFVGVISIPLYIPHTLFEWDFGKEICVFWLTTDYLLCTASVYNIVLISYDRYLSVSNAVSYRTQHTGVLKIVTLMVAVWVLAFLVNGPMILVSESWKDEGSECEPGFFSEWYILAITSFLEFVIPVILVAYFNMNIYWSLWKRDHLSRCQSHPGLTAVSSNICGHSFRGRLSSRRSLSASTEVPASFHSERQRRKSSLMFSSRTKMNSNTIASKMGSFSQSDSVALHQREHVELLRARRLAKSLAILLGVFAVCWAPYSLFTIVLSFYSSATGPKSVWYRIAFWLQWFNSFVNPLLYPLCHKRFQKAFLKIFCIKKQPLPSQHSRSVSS
Sequence of UniProt P07550 (whole entry, looked up): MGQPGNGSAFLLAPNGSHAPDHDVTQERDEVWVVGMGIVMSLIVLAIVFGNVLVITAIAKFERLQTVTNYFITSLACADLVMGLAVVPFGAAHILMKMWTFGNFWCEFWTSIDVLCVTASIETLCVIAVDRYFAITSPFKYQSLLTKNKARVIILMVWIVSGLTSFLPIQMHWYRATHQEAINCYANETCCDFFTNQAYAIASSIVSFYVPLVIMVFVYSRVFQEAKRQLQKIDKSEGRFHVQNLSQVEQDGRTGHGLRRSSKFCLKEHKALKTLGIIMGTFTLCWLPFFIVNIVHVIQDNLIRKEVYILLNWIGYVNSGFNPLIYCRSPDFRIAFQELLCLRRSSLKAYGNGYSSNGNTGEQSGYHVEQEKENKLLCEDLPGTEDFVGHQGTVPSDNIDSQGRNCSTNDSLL
Sequence of UniProt P08912 (whole entry, looked up): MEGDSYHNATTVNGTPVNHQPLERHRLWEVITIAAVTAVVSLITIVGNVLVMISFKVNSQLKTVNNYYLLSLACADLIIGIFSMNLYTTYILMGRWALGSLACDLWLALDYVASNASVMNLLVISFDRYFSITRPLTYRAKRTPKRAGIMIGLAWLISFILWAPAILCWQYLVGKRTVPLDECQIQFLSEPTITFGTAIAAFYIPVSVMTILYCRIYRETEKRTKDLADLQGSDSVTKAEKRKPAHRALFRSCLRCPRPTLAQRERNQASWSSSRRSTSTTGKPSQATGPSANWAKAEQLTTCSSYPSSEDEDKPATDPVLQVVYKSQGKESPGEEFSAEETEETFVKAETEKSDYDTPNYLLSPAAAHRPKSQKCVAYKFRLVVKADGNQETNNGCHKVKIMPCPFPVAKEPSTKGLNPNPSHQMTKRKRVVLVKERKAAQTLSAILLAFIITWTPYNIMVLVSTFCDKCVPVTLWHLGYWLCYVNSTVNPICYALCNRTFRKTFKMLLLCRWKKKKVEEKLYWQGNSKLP

Block 1
SMILES: Cc1cc2c(-c3ccco3)cnc(N[C@H]3CCN(C)C[C@@H]3C(=O)NC3CCCCC3)c2[nH]c1=O
Tested at: 10 µM
target	read-out	inhibition [%]
Histamine H4 receptor (HRH4, Homo sapiens, UniProt Q9H3N8)	ligand displacement	-23.9
Muscarinic acetylcholine receptor M5 (CHRM5, Homo sapiens, UniProt P08912)	ligand displacement	7.44
5-hydroxytryptamine receptor 6 (HTR6, Homo sapiens, UniProt P50406)	ligand displacement	-15.6
Histamine H1 receptor (HRH1, Homo sapiens, UniProt P35367)	ligand displacement	11.7
Beta-2 adrenergic receptor (ADRB2, Homo sapiens, UniProt P07550)	ligand displacement	4.04
5-hydroxytryptamine receptor 3A (HTR3A, Homo sapiens, UniProt P46098)	cell-free assay	1.04
D(4) dopamine receptor (DRD4, Homo sapiens, UniProt P21917)	ligand displacement	17.4

Block 2
Target: Ribosomal protein S6 kinase beta-1 (RPS6KB1, Homo sapiens, UniProt P23443)
Sequence of UniProt P23443 (whole entry, looked up): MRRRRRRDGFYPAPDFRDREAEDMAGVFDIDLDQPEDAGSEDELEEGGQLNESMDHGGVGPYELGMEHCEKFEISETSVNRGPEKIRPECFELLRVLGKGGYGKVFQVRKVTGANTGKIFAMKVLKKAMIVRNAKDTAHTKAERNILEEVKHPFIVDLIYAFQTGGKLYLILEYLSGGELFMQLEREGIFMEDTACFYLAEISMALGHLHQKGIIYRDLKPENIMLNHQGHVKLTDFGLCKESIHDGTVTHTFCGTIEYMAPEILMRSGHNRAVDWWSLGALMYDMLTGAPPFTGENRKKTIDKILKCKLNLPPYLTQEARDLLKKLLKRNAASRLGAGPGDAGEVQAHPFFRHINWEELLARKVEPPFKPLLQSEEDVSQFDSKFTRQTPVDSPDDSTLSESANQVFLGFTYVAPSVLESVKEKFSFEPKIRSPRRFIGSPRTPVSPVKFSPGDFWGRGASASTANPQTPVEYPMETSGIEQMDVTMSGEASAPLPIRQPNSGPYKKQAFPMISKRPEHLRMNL
Read-out: enzyme activity
Mode: inhibitor
Tested at: 0.5 µM
Reference: control
SMILES	remaining activity [%]
CC#CC(=O)Nc1cc2c(Nc3ccc(F)c(Cl)c3)ncnc2cn1	97.1
CC(=O)c1ccc(N2CCOCC2)cc1O	95.2
CCCC(=O)Oc1ccc2[nH]c(C(=O)c3cc4ccccc4[nH]3)cc2c1	94.5
CC[n+]1c(/C=C/N(C)c2ccccc2)n(-c2ccccc2)c2ccc(-c3nc4ccccc4s3)cc21	96.8
Nc1nc(Nc2ccc(S(N)(=O)=O)cc2)nn1C(=O)c1c(F)cccc1F	92.1
NC(=O)c1ccc(N(C(N)=O)c2c(F)cccc2F)nc1-c1ccc(F)cc1F	100
Nc1nccc(-c2c(-c3ccc(F)cc3)ncn2C2CCNCC2)n1	98.2
N#CC(=C(N)Sc1ccc(N)cc1)c1ccccc1C(F)(F)F	102
Nc1ncnc2c1cnn2-c1ccccc1	103
CC(C)(C)n1nc(Cc2cccc3ccccc23)c2c(N)ncnc21	98.7
Cc1cc(Nc2nc(-c3ccccc3)nc3ccccc23)n[nH]1	60.4
O=C1NC(=O)C(c2c[nH]c3ccccc23)=C1c1c[nH]c2ccccc12	75.6
CSc1nc(-c2ccnc(N[C@@H](C)c3ccccc3)c2)c(-c2ccc(F)cc2)[nH]1 (racemic)	91.2
CCc1[nH]c(-c2ccc(OC)cc2)nc1-c1ccncc1	98.4
Oc1ccc(Nc2nc(-c3ccc(Cl)cc3)cs2)cc1	104
Cc1cncc2cccc(S(=O)(=O)N3CCCN(C(=O)CN)C[C@@H]3C)c12	93.3
COc1cc(Nc2c(C#N)cnc3cc(OCCCN4CCN(C)CC4)c(OC)cc23)c(Cl)cc1Cl	87.7
Fc1ccc(-c2nc3n(c2-c2ccncc2)CCS3)cc1	108

Block 3
SMILES: CC(C)(C)c1cnc(CSc2cnc(NC(=O)C3CCN(CCCCCCCCSc4cccc5c4CN(C4CCC(=O)NC4=O)C5=O)CC3)s2)o1 (stereo not drawn)
cell line	read-out	method	tested at	time	reference	viability
HuT78		trypan blue exclusion	1000 nM	48 h	untreated control	11.3% and 19.1%
HuT78	cell growth or viability	trypan blue	50 nM	48 h		86.7%
HuT78		trypan blue exclusion	1 nM	48 h	untreated control	100% and 98.3%
HH		CCK-8	50 nM			78.3% and 82.5%
HH		CCK-8	1 nM			100% and 102%
HuT78	cell growth or viability	trypan blue	0.1 µM	48 h		57.4%
HH		CCK-8	10 nM			101% and 96.8%
HuT78		trypan blue exclusion	100 nM	48 h	untreated control	69% and 60.5%
HuT78		trypan blue exclusion	500 nM	48 h	untreated control	20.1% and 17.7%
HuT78	cell growth or viability	trypan blue	0.5 µM	48 h		15.2%

Block 4
Species: mouse
Sample: microsomes or S9
Tested at: 2 µM
Time: 0.5 h
Structure (SMILES)	remaining compound [%]
NC(N)=Nc1nc(-c2cc3ccccc3o2)cs1	8.06
CC(C)c1ccc(-c2cn3c4ccccc4nc3n2CCN2CCCCC2)cc1	0.469
N#Cc1cc(NC(CCO)C2CCOCC2)nc2ccc(Cl)cc12 (stereo not drawn)	8.06
Cn1c(Cc2ccccc2)c(-c2ccccc2)c(=O)n1C	17.9
COC(=O)c1ccc(C)c(NC(=O)CN(C)Cc2ccc(Cl)s2)c1	2.2
CC(=O)Nc1cc(O)nc2nc(-c3ccc(C(C)(C)C)cc3)nn12	53
COc1cc(=O)n(C)cc1C(=O)NC1CCCC1	73.9

Repeated from above (block 3):
cell line	read-out	method	tested at	time	reference	viability
HuT78	cell growth or viability	trypan blue	0.1 µM	48 h		57.4%
HH		CCK-8	10 nM			101% and 96.8%
HH		CCK-8	50 nM			78.3% and 82.5%
HuT78		trypan blue exclusion	500 nM	48 h	untreated control	20.1% and 17.7%
HuT78		trypan blue exclusion	100 nM	48 h	untreated control	69% and 60.5%
HuT78		trypan blue exclusion	1000 nM	48 h	untreated control	11.3% and 19.1%
